# Measured values gathered from unrelated publications.
# A part holds a random share of what one study measured.
# UniProt O95819, sequence (whole entry, looked up): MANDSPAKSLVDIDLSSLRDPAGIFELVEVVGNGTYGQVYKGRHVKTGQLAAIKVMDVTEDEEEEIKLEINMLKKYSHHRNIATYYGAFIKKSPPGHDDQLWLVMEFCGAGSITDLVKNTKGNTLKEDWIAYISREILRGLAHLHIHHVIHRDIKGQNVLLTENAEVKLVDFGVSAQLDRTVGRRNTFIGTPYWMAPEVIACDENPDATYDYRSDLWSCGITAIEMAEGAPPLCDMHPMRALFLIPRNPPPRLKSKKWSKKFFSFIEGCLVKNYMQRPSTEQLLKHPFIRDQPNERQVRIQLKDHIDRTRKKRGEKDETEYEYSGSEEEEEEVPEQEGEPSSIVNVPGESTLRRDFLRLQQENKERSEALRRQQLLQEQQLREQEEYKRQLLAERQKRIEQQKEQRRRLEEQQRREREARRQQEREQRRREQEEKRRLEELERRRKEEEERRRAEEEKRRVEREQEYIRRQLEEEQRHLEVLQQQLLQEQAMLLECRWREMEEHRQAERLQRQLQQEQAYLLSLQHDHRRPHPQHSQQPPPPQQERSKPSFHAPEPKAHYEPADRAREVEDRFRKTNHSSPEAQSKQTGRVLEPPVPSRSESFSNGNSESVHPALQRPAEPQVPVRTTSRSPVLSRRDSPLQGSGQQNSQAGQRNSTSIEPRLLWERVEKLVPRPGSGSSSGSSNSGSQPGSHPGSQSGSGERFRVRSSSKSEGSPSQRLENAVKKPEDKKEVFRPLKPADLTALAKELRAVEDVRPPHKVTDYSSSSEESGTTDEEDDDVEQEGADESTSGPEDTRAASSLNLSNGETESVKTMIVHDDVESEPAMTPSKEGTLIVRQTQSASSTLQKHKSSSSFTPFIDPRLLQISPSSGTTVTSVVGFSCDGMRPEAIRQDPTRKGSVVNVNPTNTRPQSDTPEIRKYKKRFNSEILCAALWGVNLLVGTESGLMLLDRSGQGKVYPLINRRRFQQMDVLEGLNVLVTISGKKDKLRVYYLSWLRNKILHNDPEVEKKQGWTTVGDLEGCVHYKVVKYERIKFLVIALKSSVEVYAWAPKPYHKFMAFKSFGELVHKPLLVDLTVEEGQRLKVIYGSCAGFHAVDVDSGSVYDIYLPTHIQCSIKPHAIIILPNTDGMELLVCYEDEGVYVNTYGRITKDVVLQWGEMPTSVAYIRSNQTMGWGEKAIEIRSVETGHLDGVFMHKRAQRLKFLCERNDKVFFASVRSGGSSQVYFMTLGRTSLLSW
# UniProt Q9H3Y6, sequence (whole entry, looked up): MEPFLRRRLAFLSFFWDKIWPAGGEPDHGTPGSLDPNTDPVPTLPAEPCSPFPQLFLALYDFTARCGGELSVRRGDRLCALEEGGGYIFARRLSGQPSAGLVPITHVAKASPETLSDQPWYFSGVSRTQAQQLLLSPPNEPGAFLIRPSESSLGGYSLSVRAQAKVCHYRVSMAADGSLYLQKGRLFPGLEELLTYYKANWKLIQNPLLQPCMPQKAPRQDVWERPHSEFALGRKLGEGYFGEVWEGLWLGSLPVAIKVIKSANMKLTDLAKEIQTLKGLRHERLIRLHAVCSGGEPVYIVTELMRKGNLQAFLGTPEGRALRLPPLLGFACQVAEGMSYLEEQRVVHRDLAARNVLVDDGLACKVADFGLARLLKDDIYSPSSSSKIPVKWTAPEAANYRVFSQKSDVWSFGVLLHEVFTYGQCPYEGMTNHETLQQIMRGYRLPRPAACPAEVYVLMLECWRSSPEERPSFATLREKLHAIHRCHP
# UniProt Q13177, sequence (whole entry, looked up): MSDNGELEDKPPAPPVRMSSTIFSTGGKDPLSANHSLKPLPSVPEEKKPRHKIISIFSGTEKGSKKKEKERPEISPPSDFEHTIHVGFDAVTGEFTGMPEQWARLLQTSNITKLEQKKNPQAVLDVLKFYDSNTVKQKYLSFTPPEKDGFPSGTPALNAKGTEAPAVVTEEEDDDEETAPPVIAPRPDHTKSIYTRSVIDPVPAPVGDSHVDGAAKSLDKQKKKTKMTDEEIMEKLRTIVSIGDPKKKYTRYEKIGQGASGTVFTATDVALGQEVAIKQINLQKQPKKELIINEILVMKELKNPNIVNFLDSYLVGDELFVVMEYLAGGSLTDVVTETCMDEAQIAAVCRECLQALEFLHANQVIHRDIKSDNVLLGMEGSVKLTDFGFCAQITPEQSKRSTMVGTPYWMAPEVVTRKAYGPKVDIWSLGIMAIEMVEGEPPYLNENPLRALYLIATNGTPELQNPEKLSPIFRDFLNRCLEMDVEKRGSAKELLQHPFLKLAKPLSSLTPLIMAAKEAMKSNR
# UniProt Q9UF33, sequence (whole entry, looked up): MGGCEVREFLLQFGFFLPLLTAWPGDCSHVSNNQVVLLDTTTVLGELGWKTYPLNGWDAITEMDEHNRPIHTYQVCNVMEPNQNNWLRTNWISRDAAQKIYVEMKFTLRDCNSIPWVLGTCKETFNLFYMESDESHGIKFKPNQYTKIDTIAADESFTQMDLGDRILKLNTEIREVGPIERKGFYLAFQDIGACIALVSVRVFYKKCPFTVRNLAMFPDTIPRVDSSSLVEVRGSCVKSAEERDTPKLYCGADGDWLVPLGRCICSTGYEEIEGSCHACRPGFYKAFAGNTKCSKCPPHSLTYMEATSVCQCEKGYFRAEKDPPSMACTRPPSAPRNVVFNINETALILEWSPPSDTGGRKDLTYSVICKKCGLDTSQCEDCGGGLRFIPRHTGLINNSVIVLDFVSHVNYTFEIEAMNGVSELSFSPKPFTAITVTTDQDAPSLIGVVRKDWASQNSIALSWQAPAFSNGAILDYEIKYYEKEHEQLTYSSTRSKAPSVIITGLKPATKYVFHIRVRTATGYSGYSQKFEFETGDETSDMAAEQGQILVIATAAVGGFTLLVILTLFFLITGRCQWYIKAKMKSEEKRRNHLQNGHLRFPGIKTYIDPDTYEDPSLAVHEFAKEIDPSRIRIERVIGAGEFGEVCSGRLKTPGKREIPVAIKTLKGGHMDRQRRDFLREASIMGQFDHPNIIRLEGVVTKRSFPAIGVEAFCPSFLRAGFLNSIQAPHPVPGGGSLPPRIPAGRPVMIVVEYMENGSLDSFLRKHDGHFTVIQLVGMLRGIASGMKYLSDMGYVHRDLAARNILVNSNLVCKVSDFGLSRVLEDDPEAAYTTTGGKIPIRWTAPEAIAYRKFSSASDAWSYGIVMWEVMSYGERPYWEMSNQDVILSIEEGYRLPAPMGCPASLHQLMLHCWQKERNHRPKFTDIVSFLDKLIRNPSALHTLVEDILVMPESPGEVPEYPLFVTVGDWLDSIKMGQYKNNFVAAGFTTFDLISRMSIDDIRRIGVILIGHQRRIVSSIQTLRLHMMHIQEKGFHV
# UniProt Q9UM73, sequence (whole entry, unmodified, looked up): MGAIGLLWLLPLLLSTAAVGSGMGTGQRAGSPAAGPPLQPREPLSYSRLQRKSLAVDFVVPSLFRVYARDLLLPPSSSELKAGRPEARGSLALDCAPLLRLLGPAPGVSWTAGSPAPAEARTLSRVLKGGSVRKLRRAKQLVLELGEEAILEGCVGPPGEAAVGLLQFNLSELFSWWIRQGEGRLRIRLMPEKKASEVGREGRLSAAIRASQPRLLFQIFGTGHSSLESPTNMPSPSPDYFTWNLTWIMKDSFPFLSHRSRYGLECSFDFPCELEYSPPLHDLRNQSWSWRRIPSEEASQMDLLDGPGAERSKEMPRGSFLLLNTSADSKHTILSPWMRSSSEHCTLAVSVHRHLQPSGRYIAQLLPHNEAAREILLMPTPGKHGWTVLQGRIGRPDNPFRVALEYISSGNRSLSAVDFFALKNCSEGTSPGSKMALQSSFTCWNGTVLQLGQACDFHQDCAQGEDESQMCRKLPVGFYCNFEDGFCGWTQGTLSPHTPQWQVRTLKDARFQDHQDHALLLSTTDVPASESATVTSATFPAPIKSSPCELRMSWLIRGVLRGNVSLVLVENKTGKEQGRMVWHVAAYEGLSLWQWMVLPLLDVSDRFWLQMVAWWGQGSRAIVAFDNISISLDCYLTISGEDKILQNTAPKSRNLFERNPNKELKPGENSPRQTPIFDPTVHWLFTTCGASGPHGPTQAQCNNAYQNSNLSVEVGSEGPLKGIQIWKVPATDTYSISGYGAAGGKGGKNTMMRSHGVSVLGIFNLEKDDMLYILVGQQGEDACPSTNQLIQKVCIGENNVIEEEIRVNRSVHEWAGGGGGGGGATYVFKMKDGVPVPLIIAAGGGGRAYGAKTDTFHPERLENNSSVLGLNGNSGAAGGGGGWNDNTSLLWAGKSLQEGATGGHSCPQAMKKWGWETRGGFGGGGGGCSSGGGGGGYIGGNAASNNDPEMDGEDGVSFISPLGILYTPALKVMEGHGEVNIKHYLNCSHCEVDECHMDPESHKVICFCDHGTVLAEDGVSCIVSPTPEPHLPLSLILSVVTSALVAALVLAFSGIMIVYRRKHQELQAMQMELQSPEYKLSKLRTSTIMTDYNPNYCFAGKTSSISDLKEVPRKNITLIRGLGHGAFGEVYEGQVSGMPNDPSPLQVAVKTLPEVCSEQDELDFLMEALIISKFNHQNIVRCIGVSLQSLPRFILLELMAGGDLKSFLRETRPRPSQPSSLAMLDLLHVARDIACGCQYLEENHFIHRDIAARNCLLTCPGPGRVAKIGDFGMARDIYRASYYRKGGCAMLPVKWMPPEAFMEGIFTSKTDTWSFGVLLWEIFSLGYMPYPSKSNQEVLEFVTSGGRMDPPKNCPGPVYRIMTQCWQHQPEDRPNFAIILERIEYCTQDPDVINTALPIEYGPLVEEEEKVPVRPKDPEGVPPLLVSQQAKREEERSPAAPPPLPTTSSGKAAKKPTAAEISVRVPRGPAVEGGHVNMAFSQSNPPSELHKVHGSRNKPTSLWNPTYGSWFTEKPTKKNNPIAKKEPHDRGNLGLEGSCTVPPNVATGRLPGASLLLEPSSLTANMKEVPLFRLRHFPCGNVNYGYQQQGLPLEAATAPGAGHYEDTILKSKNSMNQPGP

# Sample 1 — species: human; medium: microsomes or S9; tested at: 2 µM; time: 0.5 h
Compound,remaining compound [%]
COc1cc(N2CCC(N3CCN(C)CC3)CC2)ccc1Nc1ncc(Cl)c(Nc2ccccc2N)n1,76.9
COc1ccccc1C(CC(=O)NCCN(C)C)C(C)C (centres unmarked),91
CCc1nc(NCCCn2ccnc2)c2c3c(sc2n1)CCCC3,73.7
OC1CCOc2c(NCCc3ccccc3F)cccc21 (centres unmarked),46.4
COCC(=O)Cc1nc(N)nc(Nc2ccc(C)cc2)n1,71.9
CC1CCN(CCCNc2ncc(-c3cnccn3)c(-c3ccco3)n2)CC1,> 100
CC(=O)N1N=C(Cn2nc(C)cc2C)OC1c1ccccc1OCc1cccc(Br)c1 (centres unmarked),5.01
CC(C)CCCC(C)NC(=O)C1CCN(c2nc(Cl)nc3[nH]cnc23)CC1 (centres unmarked),2.54

# Sample 2 — tested at: 1 µM
# Compound: C[C@H](c1cccc(C#N)c1)n1cc(Cl)cc(C(N)=O)c1=N
target,test,remaining binding [%]
"SIK1 (Homo sapiens, UniProt P57059)",competition binding,100
"PRKD3 (Homo sapiens, UniProt O94806)","cell-free assay, competition with immobilised ligand",65
"MAPK15 (Homo sapiens, UniProt Q8TD08)","cell-free assay, competition with immobilised ligand",100
"SYK (Homo sapiens, UniProt P43405)","cell-free assay, competition with immobilised ligand",100
"PRPF4B (Homo sapiens, UniProt Q13523)","cell-free assay, competition with immobilised ligand",93
"PAK2 (Homo sapiens, UniProt Q13177)","cell-free assay, competition with immobilised ligand",100
"MAP3K13 (Homo sapiens, UniProt O43283)","cell-free assay, competition with immobilised ligand",97
"LCK (Homo sapiens, UniProt P06239)","cell-free assay, competition with immobilised ligand",100
"BTK (Homo sapiens, UniProt Q06187)","cell-free assay, competition with immobilised ligand",91
"WNK2 (Homo sapiens, UniProt Q9Y3S1)","cell-free assay, competition with immobilised ligand",58
"EPHA6 (Homo sapiens, UniProt Q9UF33)","cell-free assay, competition with immobilised ligand",86
"CDK19 (Homo sapiens, UniProt Q9BWU1)",competition binding,89
"ALK (Homo sapiens, UniProt Q9UM73, C1156Y)","cell-free assay, competition with immobilised ligand",89
"CDKL3 (Homo sapiens, UniProt Q8IVW4)","cell-free assay, competition with immobilised ligand",88
"EIF2AK2 (Homo sapiens, UniProt P19525)","cell-free assay, competition with immobilised ligand",100
"PDGFRB (Homo sapiens, UniProt P09619)","cell-free assay, competition with immobilised ligand",83

# Sample 3 — SMILES: Oc1ccc(Nc2nc(-c3ccc(Cl)cc3)cs2)cc1; observed: enzyme activity; action: inhibitor; tested at: 0.5 µM; relative to: control
target,remaining activity
"Cyclin-dependent kinase 6, with cyclin D3 (CDK6, Homo sapiens, UniProt Q00534)",109%
"WNK3 (Homo sapiens, UniProt Q9BYP7)",98.7%
"RPS6KA6 (Homo sapiens, UniProt Q9UK32)",117%
"DYRK3 (Homo sapiens, UniProt O43781)",101%
"CAMK2B (Homo sapiens, UniProt Q13554)",85.8%
"SRMS (Homo sapiens, UniProt Q9H3Y6)",106%
"EPHA4 (Homo sapiens, UniProt P54764)",104%
"EPHB1 (Homo sapiens, UniProt P54762)",105%
"PHKG1 (Homo sapiens, UniProt Q16816)",96.5%
"STK17A (Homo sapiens, UniProt Q9UEE5)",98.7%
"PDPK1 (Homo sapiens, UniProt O15530)",101%
"ABL1 (Homo sapiens, UniProt P00519)",99.7%
"RPS6KA5 (Homo sapiens, UniProt O75582)",109%
"HIPK4 (Homo sapiens, UniProt Q8NE63)",101%
"BLK (Homo sapiens, UniProt P51451)",100%
"EPHB4 (Homo sapiens, UniProt P54760)",89.6%
"MAP4K4 (Homo sapiens, UniProt O95819)",88.9%
"AXL (Homo sapiens, UniProt P30530)",98.5%
"HIPK2 (Homo sapiens, UniProt Q9H2X6)",90.9%
"STK16 (Homo sapiens, UniProt O75716)",106%
"MAPKAPK3 (Homo sapiens, UniProt Q16644)",94.1%
"Cyclin-dependent kinase 1, with cyclin B (CDK1, Homo sapiens, UniProt P06493)",109%
"TSSK2 (Homo sapiens, UniProt Q96PF2)",102%
"PRKACG (Homo sapiens, UniProt P22612)",112%

# Sample 4 — cell line: A-375; tested at: 100 µM; time: 18 h
Structure (SMILES),viability [%]
CN(C)CCC(c1ccc(Br)cc1)c1ccccn1 (centres unmarked),95.1
Cc1cc2c(cc1S(N)(=O)=O)S(=O)(=O)CCC2,75.9
NC(CO)(CO)CO,94.9
CN1C(C(=O)Nc2ccccn2)=C(O)c2ccccc2S1(=O)=O,80.5
C[C@H]1O[C@H](O[C@H]2[C@H](O)[C@@H](O)[C@@H](O[C@H]3[C@H](O)[C@@H](O)C(O)O[C@@H]3CO)O[C@@H]2CO)[C@H](O)[C@@H](O)[C@@H]1N[C@H]1C=C(CO)[C@@H](O)[C@H](O)[C@H]1O (some centres unmarked),98.5
CC(C)C(=O)Oc1ccc(CO)cc1[C@H](CCN(C(C)C)C(C)C)c1ccccc1,40.4
CCOC(CN1CCN(CC(C)C(=O)c2ccccc2)CC1)c1ccccc1 (centres unmarked),60.9
Cc1nccn1CC1CCc2c(c3ccccc3n2C)C1=O (centres unmarked),71.5
